Measured values of several laboratories.
Every numbered part comes from another study and shows a few of its results, in no order. Changes are numbered by the printed parent chain.
Chain of UniProt Q13153 (whole entry, looked up): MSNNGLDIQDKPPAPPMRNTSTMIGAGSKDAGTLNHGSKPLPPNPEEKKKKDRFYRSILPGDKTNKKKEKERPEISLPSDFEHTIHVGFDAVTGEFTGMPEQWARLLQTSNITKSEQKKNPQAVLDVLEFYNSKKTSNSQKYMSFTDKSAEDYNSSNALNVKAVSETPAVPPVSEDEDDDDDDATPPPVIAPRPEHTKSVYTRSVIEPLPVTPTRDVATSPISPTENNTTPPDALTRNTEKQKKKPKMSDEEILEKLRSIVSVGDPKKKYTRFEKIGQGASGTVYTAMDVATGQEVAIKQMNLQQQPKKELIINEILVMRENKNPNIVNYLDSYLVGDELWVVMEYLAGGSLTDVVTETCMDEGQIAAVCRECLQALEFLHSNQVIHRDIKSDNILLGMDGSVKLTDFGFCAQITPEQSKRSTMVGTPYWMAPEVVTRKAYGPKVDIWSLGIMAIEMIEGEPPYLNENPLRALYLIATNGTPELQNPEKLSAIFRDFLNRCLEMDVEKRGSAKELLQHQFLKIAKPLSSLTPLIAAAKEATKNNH

Sample 1 — Change: V118C; method: DHFR PCA, deep sequencing; sample: yeast; reference: wild-type fitted maximum; reading: higher = stronger binding; endpoint: relative binding score
Target: ABI1, truncated, D143A, DHFR fusion (Arabidopsis thaliana)
Setting: methotrexate growth selection, single substitutions
Starting sequence: PYL1, truncated, DHFR fusion (Arabidopsis thaliana); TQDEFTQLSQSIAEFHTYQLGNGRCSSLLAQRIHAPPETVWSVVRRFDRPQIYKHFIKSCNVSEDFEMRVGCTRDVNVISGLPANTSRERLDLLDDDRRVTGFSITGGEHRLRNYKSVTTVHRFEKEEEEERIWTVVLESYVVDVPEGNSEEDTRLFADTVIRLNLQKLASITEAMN
with: (+)-ABA 17 µM: 85.2%
with: (+)-ABA 0.11 µM: 16.5%
with: (+)-ABA 4.8 µM: 69.1%
with: (+)-ABA 0.032 µM: 9.76%
with: (+)-ABA 710 µM: 110%
with: (+)-ABA 0.0091 µM: 8.25%

Sample 2 — method: RNA Bind-n-Seq; molecule type: RNA; sample: in vitro; tested at: 200 nM; setting: whole 134-nt RNA, ends assumed; with: 150 mM KCl; reference: input library; reading: higher = stronger binding; endpoint: log2 enrichment
Target: Fragile X messenger ribonucleoprotein 1, C-terminal low-complexity region (Fmr1, Mus musculus, UniProt P35922)
Constant ends, left off below: GGGAGUUCUACAGUCCGACGAUC … UGGAAUUCUCGGGUGUCAAGG
GUCCUGUGCUACACAUCGUAUGUACCGAAUCGGGAAAAAAAGGGAGGGUUUUUUUGGGAAAGUAUUAUGUUACGCCGUUCGGAUCUGCAC: 0.0609
CUGUGCUACACAUCGUAUGUACCGAAUCGGGGUUUGGGGAAAAAAAGGGGUUUUUUUGGGGAAAGUAUUAUGUUACGCCGUUCGGAUCUG: 0.0181
CAAGUCCUGUGCUACACAUCGUAUGUACCGAAUCGGUUUUUUUGGUUUGGUUUGGAAAGUAUUAUGUUACGCCGUUCGGAUCUGCACUUC: -0.761
CCUCAAGUCCUGUGCUACACAUCGUAUGUACCGAAUCGGAAGGGAAGGAAGGGAAAGUAUUAUGUUACGCCGUUCGGAUCUGCACUUCCA: -0.394
GUCCUGUGCUACACAUCGUAUGUACCGAAUCGGCCCCCCGGCCCCCCGGGCCCCCCGGAAAGUAUUAUGUUACGCCGUUCGGAUCUGCAC: 0.109
CAAGUCCUGUGCUACACAUCGUAUGUACCGAAUCGGAAAGGUUUGGUUUUUUUGGAAAGUAUUAUGUUACGCCGUUCGGAUCUGCACUUC: -0.73
CACAGACAACACAAACCCACACAGACACAGAGGGAAGGGGUUGGGAUGGGGACAGGGUGCACAGCAGGGCGGGGUAGGACCCCAGCCCCU: 1.51
CCCAUUCCAAGAUUUGCUGUUGGCAUUGUAAUAGGAAGAAAUGGAGAGAUGAUCAAAAAAAUACAAAAUGAUGCUGGUGUUCGCAUUCAG: -0.41

Sample 3 — method: Sort-seq; measured: YFP reporter; sample: E. coli; setting: PhoQ-PhoP variant library; with: 10 µM Mg2+; reference: high Mg2+ state; reading: higher = stronger signaling; endpoint: fold induction
Molecule: PhoQ, residues 284 288 289 292 302 303 ALASRC
PhoP, residues 12 14 15 18 19 GMGLL (Escherichia coli, UniProt P23836): 1.79
PhoP, residues 12 14 15 18 19 LFHKL (Escherichia coli, UniProt P23836): 7.24
PhoP, residues 12 14 15 18 19 QQAYL (Escherichia coli, UniProt P23836): 9.73

Single results of other studies
CC[n+]1c(/C=C/N(C)c2ccccc2)n(-c2ccccc2)c2ccc(-c3nc4ccccc4s3)cc21  remaining activity (Serine/threonine-protein kinase PAK 1 (PAK1, Homo sapiens, UniProt Q13153); enzyme activity, inhibitor; 0.5 µM; reference: control): 87.5%

Excerpt of the above (sample 1):
with: (+)-ABA 4.8 µM: 69.1%
with: (+)-ABA 0.032 µM: 9.76%
